Experimental data from different studies.
Protocols differ between the studies behind these lines. ± marks the error that the study gave.
Target: Tyrosine-protein kinase ITK/TSK (ITK, Homo sapiens, UniProt Q08881)
Residues used in one study (Q08881 1-620): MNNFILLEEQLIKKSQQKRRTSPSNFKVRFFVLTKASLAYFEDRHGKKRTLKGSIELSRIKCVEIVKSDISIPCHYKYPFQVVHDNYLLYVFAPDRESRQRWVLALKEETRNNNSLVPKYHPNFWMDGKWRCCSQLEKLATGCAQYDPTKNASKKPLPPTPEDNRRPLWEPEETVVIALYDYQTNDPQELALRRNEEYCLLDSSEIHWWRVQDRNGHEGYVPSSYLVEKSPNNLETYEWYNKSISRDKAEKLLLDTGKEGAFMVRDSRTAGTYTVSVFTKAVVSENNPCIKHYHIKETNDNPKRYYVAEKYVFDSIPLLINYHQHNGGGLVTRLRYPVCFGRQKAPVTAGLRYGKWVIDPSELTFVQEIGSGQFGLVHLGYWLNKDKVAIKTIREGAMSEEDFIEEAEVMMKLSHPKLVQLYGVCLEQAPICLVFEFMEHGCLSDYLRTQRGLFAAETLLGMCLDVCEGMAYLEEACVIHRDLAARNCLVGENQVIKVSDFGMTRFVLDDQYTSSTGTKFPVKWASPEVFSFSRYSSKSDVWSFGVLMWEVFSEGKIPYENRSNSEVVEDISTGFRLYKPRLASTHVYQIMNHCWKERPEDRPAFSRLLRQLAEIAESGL

| SMILES | assay | test system | conditions | scale | measurement | result |
| --- | --- | --- | --- | --- | --- | --- |
| O=C(NC1CCC1)c1ccc2nc(-c3cccc(NS(=O)(=O)NCCN4CCCCC4)c3)cn2c1 | enzyme activity | – | 10 µM | – | remaining activity | 100% |
| C[C@@H](c1ccc(-n2cnc3c(N)ncnc32)cc1)N1CCc2nn(C)c(Cc3ccccc3)c2C1=O | KINOMEscan | – | 0.1 µM | relative to: DMSO control | remaining binding | 67% |
| [2H]c1cc(C)c(NC(=O)c2cnc(Nc3cc(N4CCC(O)CC4)nc(C)n3)s2)c(Cl)c1 | – | – | 0.001 µM | – | inhibition | < 50% |
| C=CC(=O)N1CCC([C@@H]2CCNc3c(C(N)=O)c(-c4ccc(Oc5ccccc5)cc4)nn32)CC1 | kinase activity, inhibitor, HotSpot radiometric | – | 100 nM, added: ATP 10 µM | – | remaining activity | 85.2% |
| CNc1ncc2c(/C=C/C(=O)N3CCC(OC)CC3)nn(Cc3cccc(C(F)(F)F)c3)c2n1 | kinase activity, inhibitor | – | 1 µM | relative to: untreated control | remaining activity | 83% |
| COc1cc(F)ccc1-c1ncnc(Nc2cccc(C[S@](C)(=N)=O)c2)n1 | kinase activity | – | 10 µM, added: 10 µM ATP | – | remaining activity | 83% |
| CCN(CC)c1ccc(C2=NNC(=O)CC2C)cc1[N+](=O)[O-] (stereo not shown) | enzyme activity, inhibitor | – | 10 µM | relative to: vehicle | remaining activity | 97% |
| C=CC(=O)N1CCC(COCC(=O)N2CCN(c3nc(-c4cnc(N)nc4C(F)F)nc(N4CCOC[C@@H]4C)n3)CC2)CC1 | KINOMEscan | – | 1 µM | relative to: DMSO control | remaining binding | 66% |
| COc1cc(N2CCN(C)CC2)ccc1Nc1nc(N)n(C(=S)NCc2c(Cl)cccc2Cl)n1 | enzyme activity | – | 10 µM | relative to: control | remaining activity | 0.5% |
| C1=C/COCc2cc(ccc2OCCN2CCCC2)Nc2nccc(n2)-c2cccc(c2)COC/1 | – | – | concentration not given | – | percent of control | 90% |
| COc1cc(C)c(Sc2cnc(NC(=O)c3ccc(N4CCN(CCCCCCCNC(=O)COc5cccc6c5C(=O)N(C5CCC(=O)NC5=O)C6=O)CC4)cc3)s2)cc1C(=O)N1CCN(C(C)=O)CC1 (stereo not shown) | degrader | HuT78 or DERL-2 | 16 h | – | Dmax concentration | ~1 µM |
| Cc1cc(Nc2cc(N3CCN(C)CC3)nc(Sc3ccc(NC(=O)C4CC4)cc3)n2)[nH]n1 | kinase activity, KinaseProfiler | – | 0.03 µM, species human | relative to: control | remaining activity | 97% |
| COc1ccc(F)cc1C(=O)NCc1ccc(-c2nn([C@@H](C)C(F)(F)F)c(N)c2C(N)=O)cc1 | kinase activity, inhibitor, HotSpot radiometric | – | 100 nM, added: ATP 10 µM | – | remaining activity | 106 ± 3.9% |
| C=CC(=O)N1CCC(C(=O)NCC(=O)N2CCN(c3nc(-c4cnc(N)nc4C(F)F)nc(N4CCOCC4)n3)CC2)CC1 | KINOMEscan | – | 1 µM | – | remaining binding | 99% |
| CCCOc1ccc(OC)c(F)c1C(=O)c1ccc(C(=O)N[C@@H]2CNC[C@H]2NC(=O)c2ccc3[nH]ncc3c2)cc1 | enzyme activity | – | 10 µM | – | remaining activity | 95% |
| CC#CC(=O)N1CCC[C@H]1c1nc(-c2ccc(C(=O)Nc3ccccn3)cc2)c2c(N)nccn12 | kinase activity, inhibitor, HotSpot radiometric | – | 100 nM, added: ATP 10 µM | – | remaining activity | 97.5 ± 1.3% |

Some of these lines once more:
| SMILES | assay | test system | conditions | scale | measurement | result |
| --- | --- | --- | --- | --- | --- | --- |
| C=CC(=O)N1CCC(COCC(=O)N2CCN(c3nc(-c4cnc(N)nc4C(F)F)nc(N4CCOC[C@@H]4C)n3)CC2)CC1 | KINOMEscan | – | 1 µM | relative to: DMSO control | remaining binding | 66% |
| COc1cc(N2CCN(C)CC2)ccc1Nc1nc(N)n(C(=S)NCc2c(Cl)cccc2Cl)n1 | enzyme activity | – | 10 µM | relative to: control | remaining activity | 0.5% |
